Measured values gathered from unrelated publications.
Parts stem from different laboratories: compare values within a part only.
Sequence of UniProt O15111 (whole entry, looked up): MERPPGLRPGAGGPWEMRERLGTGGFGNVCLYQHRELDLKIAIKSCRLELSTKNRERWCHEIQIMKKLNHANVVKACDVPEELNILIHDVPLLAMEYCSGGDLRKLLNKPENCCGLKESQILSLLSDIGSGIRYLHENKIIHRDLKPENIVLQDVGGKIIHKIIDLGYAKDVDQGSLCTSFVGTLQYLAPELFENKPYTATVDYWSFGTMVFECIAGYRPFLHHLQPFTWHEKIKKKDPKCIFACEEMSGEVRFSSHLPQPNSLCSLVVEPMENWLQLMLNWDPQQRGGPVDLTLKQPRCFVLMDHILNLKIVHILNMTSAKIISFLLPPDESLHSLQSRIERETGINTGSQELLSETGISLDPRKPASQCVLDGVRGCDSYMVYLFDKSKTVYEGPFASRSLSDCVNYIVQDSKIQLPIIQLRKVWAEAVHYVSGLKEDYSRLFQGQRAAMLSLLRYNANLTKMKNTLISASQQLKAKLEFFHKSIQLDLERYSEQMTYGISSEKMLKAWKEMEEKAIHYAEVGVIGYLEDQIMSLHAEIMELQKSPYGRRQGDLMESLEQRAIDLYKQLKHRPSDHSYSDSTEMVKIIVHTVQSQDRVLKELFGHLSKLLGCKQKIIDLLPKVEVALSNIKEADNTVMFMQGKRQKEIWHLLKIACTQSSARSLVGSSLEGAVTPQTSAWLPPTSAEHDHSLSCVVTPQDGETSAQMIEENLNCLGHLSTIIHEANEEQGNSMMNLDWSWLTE
Sequence of UniProt P51956 (whole entry, looked up): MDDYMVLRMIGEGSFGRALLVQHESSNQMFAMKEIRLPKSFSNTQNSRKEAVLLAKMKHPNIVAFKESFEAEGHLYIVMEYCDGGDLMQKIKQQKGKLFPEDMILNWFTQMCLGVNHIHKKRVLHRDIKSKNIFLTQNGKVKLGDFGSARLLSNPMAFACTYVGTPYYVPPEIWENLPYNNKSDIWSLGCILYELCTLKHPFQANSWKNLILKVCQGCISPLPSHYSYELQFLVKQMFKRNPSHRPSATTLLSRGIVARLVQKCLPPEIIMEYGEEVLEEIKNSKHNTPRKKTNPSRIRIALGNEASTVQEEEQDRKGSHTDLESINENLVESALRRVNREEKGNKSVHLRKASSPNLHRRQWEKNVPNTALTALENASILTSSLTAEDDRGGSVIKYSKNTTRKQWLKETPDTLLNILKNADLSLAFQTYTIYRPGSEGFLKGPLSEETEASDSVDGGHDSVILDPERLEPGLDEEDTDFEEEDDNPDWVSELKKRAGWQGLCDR
Sequence of UniProt Q15831 (whole entry, looked up): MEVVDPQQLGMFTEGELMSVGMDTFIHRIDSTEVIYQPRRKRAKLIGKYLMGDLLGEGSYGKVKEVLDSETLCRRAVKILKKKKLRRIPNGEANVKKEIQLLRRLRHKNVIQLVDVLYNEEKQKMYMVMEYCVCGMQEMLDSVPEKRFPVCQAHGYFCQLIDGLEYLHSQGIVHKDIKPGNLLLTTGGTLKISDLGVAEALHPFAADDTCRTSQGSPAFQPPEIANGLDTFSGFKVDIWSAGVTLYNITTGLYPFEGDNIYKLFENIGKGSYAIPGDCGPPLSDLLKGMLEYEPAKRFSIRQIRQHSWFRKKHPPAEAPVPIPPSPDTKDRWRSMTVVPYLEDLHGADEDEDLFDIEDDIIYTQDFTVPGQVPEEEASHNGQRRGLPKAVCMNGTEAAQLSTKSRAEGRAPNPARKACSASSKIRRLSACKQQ

Block 1
Compound: Cc1nc(Cc2cccc(C(F)(F)F)c2)sc1-c1ccc(C(N)=O)nc1
Read-out: cell-free assay
Technique: competition with immobilised ligand
Concentration: 1 µM
| target | remaining binding |
| --- | --- |
| CHUK (Homo sapiens, UniProt O15111) | 100% |
| NEK3 (Homo sapiens, UniProt P51956) | 100% |
| STK11 (Homo sapiens, UniProt Q15831) | 100% |

Block 2
Target: Ras GTPase-activating protein-binding protein 1, C-terminal RGG region (G3BP1, Homo sapiens, UniProt Q13283)
Sequence of UniProt Q13283 (whole entry, looked up): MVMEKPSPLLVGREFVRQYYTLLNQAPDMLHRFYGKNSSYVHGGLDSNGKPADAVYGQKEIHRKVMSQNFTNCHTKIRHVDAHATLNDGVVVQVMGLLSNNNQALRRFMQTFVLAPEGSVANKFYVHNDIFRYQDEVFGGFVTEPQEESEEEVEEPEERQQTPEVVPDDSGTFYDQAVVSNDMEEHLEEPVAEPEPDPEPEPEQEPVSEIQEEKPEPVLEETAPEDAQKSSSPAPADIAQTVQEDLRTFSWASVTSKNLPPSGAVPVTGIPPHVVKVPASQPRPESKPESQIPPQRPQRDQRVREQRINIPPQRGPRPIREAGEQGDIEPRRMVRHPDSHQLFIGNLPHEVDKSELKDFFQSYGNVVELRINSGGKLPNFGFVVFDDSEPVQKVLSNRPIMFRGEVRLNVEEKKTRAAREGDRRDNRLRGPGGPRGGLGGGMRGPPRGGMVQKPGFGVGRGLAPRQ
Technique: RNA Bind-n-Seq
Form: RNA
Medium: in vitro
Concentration: 1 µM
Setting: whole 134-nt RNA, ends assumed
Added: 150 mM KCl
Baseline: input library
Direction: higher = stronger binding
| Oligonucleotide | log2 enrichment |
| --- | --- |
| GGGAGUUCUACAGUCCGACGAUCGUCCUGUGCUACACAUCGUAUGUACCGAAUCGGGGUUUGGGGAAAAAGGGGAAAGGGGAAAGUAUUAUGUUACGCCGUUCGGAUCUGCACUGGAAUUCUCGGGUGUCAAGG | 3.29 |
| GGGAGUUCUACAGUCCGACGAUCCCUGUGCUACACAUCGUAUGUACCGAAUCGGAAAAAAAGGGAAAAAAAGGGGAAAAAAAGGAAAGUAUUAUGUUACGCCGUUCGGAUCUGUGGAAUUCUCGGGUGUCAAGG | -1.68 |
| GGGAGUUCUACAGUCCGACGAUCUAACUUUAGAGGAGGAUCUGAUGGAUAUGGCAGUGGACGUGGAUUUGGCGAUGGCUAUAAUGGGUAUGGAGGAGGACCUGGAGGUGGCAAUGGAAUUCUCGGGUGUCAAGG | -0.741 |
| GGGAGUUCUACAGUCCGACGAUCUGGCCUUGGUGGCAUGCGGGGAGGAAGAGGUGGCCUCAUGGAUCGUGGUGGUCCCGGUGGAAUGUUCAGAGGUGGCCGUGGUGGAGACAGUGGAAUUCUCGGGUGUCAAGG | 1.98 |
| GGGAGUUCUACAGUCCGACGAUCCAAGUCCUGUGCUACACAUCGUAUGUACCGAAUCGGGAAAAAGGGUGGGUUUGGGAAAGUAUUAUGUUACGCCGUUCGGAUCUGCACUUCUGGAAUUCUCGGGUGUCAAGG | 1.9 |
| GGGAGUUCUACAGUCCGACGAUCUCCUGUGCUACACAUCGUAUGUACCGAAUCGGGGAAAAAAGGAAAAAAGGAAAAAAGGGGAAAGUAUUAUGUUACGCCGUUCGGAUCUGCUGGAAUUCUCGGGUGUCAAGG | -1.46 |
| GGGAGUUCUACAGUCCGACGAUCGAGGAGAUAAUCUCGGAAAAGUUACGGAAACCUGGGAAGUCGGCGAAACCCUACGUUCGGGUGUUUUCGGAAGCAGCCGAAGCGGCCGCCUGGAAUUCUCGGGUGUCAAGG | -1.03 |
| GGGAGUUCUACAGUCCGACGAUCGCAGGAAGUAAAAACAAAUGGAAAUGCUUCGAAAAGUGGCAGGGGUGGGGGUUGCUAAGGAAAGGGUGGGAUGGGAGUGGGUAAAGAGUUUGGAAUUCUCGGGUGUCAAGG | 1.91 |

Block 3
Target: Eukaryotic initiation factor 4A-I (EIF4A1, Homo sapiens, UniProt P60842, residues 1-406, full length assumed)
Sequence of UniProt P60842 (whole entry, looked up): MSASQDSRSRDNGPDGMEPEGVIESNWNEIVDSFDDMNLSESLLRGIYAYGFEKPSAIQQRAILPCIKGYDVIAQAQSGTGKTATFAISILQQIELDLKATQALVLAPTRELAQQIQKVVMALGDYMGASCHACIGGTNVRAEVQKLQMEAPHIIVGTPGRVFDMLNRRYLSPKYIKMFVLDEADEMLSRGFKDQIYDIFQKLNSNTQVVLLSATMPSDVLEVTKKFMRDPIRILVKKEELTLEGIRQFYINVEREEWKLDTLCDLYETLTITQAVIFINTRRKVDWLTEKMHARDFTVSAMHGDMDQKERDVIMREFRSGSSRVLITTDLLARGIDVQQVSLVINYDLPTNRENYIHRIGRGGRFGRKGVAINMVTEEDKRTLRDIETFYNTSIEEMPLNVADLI
Technique: RNA Bind-n-Seq
Form: RNA
Medium: in vitro
Concentration: 15 pmol
Setting: 4-mer, random 30-nt RNA, single round
Added: 3 µM DMDA-PatA, 2 mM AMP-PNP
Baseline: input library
Direction: higher = stronger binding
| Oligonucleotide | 4-mer enrichment [fold] |
| --- | --- |
| CUCG | 0.824 |
| AUCG | 1.54 |
| GACG | 0.689 |
| CCUU | 0.703 |
| CUCU | 0.694 |
| UGCC | 0.702 |
| UCCG | 0.887 |
| CACU | 0.569 |

Further values, each from its own experiment
| Compound | medium | endpoint | value |
| --- | --- | --- | --- |
| CCC[C@H]1NC(=O)CSC[C@@H](C(=O)OCC)N(C)C(=O)[C@H](CC(C)C)NC(=O)[C@H](C)N(C)C(=O)[C@H](CC(C)C)NC(=O)[C@H](C)N(C)C(=O)[C@@H]2CCCN2C(=O)[C@H](CC(C)C)NC(=O)CN(CCC)C1=O | hydrocarbon/water | logD | 0.757 |

Repeated from above (block 2):
| Oligonucleotide | log2 enrichment |
| --- | --- |
| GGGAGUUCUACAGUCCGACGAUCUGGCCUUGGUGGCAUGCGGGGAGGAAGAGGUGGCCUCAUGGAUCGUGGUGGUCCCGGUGGAAUGUUCAGAGGUGGCCGUGGUGGAGACAGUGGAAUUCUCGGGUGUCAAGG | 1.98 |
| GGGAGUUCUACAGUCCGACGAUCCAAGUCCUGUGCUACACAUCGUAUGUACCGAAUCGGGAAAAAGGGUGGGUUUGGGAAAGUAUUAUGUUACGCCGUUCGGAUCUGCACUUCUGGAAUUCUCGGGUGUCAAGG | 1.9 |
